Assay results gathered from unrelated publications.
A part holds a random share of what one study measured.
Chain of UniProt P23443 (whole entry, looked up): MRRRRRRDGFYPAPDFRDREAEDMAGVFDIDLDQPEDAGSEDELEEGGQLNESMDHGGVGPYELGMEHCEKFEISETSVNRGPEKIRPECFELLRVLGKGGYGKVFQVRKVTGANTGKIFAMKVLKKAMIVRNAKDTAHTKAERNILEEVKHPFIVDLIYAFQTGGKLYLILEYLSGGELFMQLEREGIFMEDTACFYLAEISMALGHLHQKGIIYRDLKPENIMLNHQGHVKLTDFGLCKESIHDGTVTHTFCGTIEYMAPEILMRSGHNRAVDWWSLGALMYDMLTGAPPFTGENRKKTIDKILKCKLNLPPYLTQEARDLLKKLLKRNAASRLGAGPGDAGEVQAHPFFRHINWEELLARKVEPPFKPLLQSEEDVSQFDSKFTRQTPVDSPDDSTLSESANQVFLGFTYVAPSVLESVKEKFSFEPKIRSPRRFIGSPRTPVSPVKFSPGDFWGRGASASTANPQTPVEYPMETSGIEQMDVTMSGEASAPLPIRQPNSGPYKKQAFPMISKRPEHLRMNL
Chain of UniProt Q15569 (whole entry, looked up): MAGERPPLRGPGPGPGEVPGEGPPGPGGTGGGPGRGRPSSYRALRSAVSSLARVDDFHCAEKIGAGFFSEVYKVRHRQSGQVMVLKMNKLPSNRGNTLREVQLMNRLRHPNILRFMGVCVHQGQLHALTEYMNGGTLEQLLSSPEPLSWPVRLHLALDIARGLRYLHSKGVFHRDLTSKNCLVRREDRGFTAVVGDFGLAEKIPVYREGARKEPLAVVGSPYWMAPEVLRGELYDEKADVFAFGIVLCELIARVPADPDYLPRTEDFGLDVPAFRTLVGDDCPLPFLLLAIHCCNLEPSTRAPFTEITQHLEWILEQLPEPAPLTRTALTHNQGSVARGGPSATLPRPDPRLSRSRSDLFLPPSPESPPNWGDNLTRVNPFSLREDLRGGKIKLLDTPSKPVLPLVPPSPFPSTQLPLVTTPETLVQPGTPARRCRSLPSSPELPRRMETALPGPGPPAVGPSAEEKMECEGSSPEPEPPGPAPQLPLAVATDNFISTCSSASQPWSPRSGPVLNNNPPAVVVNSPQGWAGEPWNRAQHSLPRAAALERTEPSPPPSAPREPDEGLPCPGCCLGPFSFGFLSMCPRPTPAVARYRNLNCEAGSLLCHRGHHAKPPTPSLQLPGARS
Chain of UniProt Q92772 (whole entry, looked up): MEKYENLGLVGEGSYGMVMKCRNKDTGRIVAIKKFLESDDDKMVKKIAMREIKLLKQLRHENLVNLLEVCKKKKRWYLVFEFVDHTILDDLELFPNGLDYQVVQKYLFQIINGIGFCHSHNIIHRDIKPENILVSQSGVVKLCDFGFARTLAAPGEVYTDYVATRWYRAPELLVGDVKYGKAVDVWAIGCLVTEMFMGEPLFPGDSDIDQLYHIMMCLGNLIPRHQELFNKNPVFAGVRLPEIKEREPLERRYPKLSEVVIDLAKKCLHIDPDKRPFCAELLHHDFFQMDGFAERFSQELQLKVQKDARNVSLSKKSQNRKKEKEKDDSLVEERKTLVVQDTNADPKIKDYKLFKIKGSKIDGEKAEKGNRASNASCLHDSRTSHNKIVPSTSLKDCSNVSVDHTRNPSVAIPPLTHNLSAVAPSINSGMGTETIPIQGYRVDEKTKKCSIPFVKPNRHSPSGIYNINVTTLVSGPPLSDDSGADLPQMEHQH
Chain of UniProt O75460 (whole entry, looked up): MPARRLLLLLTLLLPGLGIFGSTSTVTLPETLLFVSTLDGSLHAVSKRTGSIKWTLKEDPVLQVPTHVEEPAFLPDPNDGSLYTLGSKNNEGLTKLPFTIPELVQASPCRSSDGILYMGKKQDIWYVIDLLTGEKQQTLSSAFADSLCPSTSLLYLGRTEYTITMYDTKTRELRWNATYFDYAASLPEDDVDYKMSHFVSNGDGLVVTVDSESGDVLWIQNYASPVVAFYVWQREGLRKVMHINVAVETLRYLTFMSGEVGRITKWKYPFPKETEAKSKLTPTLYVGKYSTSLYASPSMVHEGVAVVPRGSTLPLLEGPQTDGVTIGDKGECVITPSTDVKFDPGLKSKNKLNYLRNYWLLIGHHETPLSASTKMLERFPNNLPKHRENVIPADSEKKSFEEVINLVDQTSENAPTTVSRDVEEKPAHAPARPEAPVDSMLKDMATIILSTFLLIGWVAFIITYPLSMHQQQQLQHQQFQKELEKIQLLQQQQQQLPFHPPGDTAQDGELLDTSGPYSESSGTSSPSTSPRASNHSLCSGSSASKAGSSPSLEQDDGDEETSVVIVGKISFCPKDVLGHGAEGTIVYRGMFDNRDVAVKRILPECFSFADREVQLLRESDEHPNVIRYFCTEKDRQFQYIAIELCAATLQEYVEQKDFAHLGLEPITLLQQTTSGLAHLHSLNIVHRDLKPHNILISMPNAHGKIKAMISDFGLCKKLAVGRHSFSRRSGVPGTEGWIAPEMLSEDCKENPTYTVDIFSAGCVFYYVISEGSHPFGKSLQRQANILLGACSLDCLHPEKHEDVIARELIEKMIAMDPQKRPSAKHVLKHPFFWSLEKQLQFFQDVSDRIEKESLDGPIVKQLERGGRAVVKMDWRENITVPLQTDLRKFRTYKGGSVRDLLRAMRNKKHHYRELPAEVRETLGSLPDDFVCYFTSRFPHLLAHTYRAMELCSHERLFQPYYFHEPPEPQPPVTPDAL
Chain of UniProt Q15208 (whole entry, looked up): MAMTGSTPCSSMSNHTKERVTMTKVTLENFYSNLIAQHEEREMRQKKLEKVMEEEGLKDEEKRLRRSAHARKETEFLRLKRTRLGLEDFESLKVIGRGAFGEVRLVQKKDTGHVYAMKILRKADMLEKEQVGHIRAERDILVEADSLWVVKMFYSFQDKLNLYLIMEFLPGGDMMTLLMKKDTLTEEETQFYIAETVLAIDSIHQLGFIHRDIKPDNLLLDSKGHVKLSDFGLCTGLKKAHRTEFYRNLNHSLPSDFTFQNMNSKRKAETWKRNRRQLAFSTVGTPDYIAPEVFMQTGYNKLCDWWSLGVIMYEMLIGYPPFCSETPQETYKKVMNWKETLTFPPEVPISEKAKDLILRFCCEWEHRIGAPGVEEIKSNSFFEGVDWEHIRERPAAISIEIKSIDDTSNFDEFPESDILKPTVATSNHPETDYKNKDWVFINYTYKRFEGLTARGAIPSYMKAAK
Chain of UniProt P53778 (whole entry, looked up): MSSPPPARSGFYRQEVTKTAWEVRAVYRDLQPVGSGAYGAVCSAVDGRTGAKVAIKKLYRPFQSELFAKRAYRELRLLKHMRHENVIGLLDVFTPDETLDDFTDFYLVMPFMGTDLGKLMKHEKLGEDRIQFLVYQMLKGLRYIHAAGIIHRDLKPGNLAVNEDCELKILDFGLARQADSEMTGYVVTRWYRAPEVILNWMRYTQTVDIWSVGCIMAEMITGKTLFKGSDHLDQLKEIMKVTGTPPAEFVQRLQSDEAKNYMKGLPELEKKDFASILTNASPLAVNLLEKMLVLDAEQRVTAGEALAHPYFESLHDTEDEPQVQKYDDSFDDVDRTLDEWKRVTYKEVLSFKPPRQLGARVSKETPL
Chain of UniProt Q9BRS2 (whole entry, looked up): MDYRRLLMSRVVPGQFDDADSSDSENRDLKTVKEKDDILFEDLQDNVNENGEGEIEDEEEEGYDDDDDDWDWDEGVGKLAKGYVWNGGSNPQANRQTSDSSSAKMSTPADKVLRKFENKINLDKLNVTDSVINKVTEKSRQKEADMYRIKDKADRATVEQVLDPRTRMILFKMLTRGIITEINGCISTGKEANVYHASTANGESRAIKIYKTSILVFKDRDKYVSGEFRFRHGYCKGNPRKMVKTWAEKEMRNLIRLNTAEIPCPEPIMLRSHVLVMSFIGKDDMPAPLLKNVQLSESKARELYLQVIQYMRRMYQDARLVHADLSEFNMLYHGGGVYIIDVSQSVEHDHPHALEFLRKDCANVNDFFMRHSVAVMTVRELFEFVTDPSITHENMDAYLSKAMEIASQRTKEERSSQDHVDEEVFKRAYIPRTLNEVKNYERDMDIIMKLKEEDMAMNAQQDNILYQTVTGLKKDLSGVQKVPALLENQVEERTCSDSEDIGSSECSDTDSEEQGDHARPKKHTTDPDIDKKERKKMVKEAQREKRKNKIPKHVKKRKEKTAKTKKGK
Chain of UniProt Q9UHD2 (whole entry, looked up): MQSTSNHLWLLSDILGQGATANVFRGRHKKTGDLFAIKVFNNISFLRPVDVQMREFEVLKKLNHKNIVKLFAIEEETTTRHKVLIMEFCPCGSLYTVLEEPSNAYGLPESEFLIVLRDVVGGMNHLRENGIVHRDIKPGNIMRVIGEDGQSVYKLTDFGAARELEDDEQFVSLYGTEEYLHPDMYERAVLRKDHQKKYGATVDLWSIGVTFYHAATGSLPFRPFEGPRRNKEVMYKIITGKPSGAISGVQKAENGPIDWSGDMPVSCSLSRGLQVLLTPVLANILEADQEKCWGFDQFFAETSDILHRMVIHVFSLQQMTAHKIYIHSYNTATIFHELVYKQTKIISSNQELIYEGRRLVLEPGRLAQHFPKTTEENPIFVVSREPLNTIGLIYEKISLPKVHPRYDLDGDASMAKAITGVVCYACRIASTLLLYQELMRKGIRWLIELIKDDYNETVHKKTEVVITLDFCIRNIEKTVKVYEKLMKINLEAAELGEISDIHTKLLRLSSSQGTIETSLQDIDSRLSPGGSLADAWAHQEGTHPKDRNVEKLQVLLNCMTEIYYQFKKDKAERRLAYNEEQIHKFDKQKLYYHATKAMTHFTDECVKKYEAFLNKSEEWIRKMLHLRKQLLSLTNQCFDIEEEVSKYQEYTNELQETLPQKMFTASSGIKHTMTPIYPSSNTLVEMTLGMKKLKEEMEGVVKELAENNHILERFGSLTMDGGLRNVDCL

Sample 1
Cell line: A-375
Concentration: 100 µM
Time: 18 h
The viability of `O=c1cc(-c2ccc(O)cc2)oc2cc(O)cc(O)c12` is reported as 84.9%.
The viability of `CC(C)NCC(O)c1cc(O)cc(O)c1` (stereo not drawn) is reported as 93.9%.
For `NC(=O)Cc1cccc(C(=O)c2ccccc2)c1N`, the viability was 89.3%.
With `CC(=O)OCC(=O)[C@@]12OC3(CCCC3)O[C@@H]1C[C@H]1[C@@H]3CCC4=CC(=O)C=C[C@]4(C)[C@@]3(F)[C@@H](O)C[C@@]12C` the viability was 69.9%.
With `CCN1CCCC1CNC(=O)c1cc(S(=O)(=O)CC)c(N)cc1OC` (stereo not drawn) the viability was 87.7%.

Sample 2
Cell line: mouse MPNST tumor cells
Technique: high-content nuclear imaging
Measured: cell number
Concentration: 10 µM
Time: 12 h
Notes: mean of 2 replicates
Reference: plate mean
Reading: higher = more cells
With `NS(=O)(=O)c1ccc2c(c1)C1C=CCC1C(c1ccc(Br)cc1)N2` (stereo not drawn) the nuclei count was 1.92 z-score.
The nuclei count of `CN(C)CC/C=C1/c2ccccc2Sc2ccc(Cl)cc21` is reported as -5.16 z-score.
`CNc1cc2c(Nc3cccc(Br)c3)ncnc2cn1` gave a nuclei count of 0.782 z-score.
For `COC(=O)[C@@H]1[C@H]2C[C@H]3c4[nH]c5ccccc5c4CCN3C[C@@H]2CC[C@@H]1O`, the nuclei count was 0.755 z-score.
`O=C(Nc1ccncc1)c1cc([N+](=O)[O-])ccc1Cl` has a nuclei count of -2.6 z-score.

Sample 3
SMILES: CC(C)n1cnc(-c2ccc(F)cc2)c1-c1ncc(C(=O)Nc2ccc(N3CCN(C)CC3)cc2)[nH]1
Technique: phase 2a trial
Species: idiopathic pulmonary fibrosis patients
measured: QRS axis abnormal; 60 mg once daily, grade 3 — “adverse event incidence”: 0%.
measured: appendicitis; 60 mg once daily, grade 3 — “adverse event incidence”: 0%.
measured: proteinuria; dose not given, grade 4, all arms pooled — “adverse event incidence”: 0%.
measured: drug eruption; 30 mg once daily, grade 2 — “adverse event incidence”: 0%.
It gave 0% for “adverse event incidence” (measured: ECG ST segment abnormal; dose not given, grade 5, all arms pooled).
The “adverse event incidence” was 0% (measured: infection; 60 mg once daily, grade 4).
measured: liver injury; dose not given, grade 1, all arms pooled — “adverse event incidence”: 0%.

Sample 4
SMILES: Cn1cc(/C=C2\C(=O)Nc3ccc(S(N)(=O)=O)cc32)c2ccccc21
Read-out: enzyme activity
Mode: inhibitor
Concentration: 0.5 µM
Reference: control
Protein kinase C delta type (PRKCD, Homo sapiens, UniProt Q05655) — remaining activity: 91.3%.
Mitogen-activated protein kinase 12 (MAPK12, Homo sapiens, UniProt P53778) — remaining activity: 101%.
It gave 84.7% for remaining activity (Casein kinase II subunit alpha (CSNK2A1, Homo sapiens, UniProt P68400)).
It gave 53.1% for remaining activity (Serine/threonine-protein kinase 38 (STK38, Homo sapiens, UniProt Q15208)).
It gave 116% for remaining activity (Dual specificity mitogen-activated protein kinase kinase 6 (MAP2K6, Homo sapiens, UniProt P52564)).
For Protein kinase C iota type (PRKCI, Homo sapiens, UniProt P41743): remaining activity read 99.6%.
Mitogen-activated protein kinase 13 (MAPK13, Homo sapiens, UniProt O15264) — remaining activity: 105%.

Sample 5
SMILES: CC(C)CC(=O)N1CCc2nc(-c3ccc(Br)cc3)nc(N(C)Cc3ccccc3)c2C1
Read-out: cell-free assay
Technique: competition with immobilised ligand
Concentration: 0.1 µM
The remaining binding was 70% (Hepatocyte growth factor receptor (MET, Homo sapiens, UniProt P08581, M1250T)).
It gave 100% for remaining binding (Epidermal growth factor receptor (EGFR, Homo sapiens, UniProt P00533, G719C)).
For Dual specificity testis-specific protein kinase 1 (TESK1, Homo sapiens, UniProt Q15569): remaining binding read 100%.
It gave 100% for remaining binding (Proto-oncogene tyrosine-protein kinase receptor Ret (RET, Homo sapiens, UniProt P07949, M918T)).
The remaining binding was 96% (Myosin light chain kinase 2, skeletal/cardiac muscle (MYLK2, Homo sapiens, UniProt Q9H1R3)).
The remaining binding was 100% (Mitogen-activated protein kinase 4 (MAPK4, Homo sapiens, UniProt P31152)).
It gave 98% for remaining binding (Serine/threonine-protein kinase RIO1 (RIOK1, Homo sapiens, UniProt Q9BRS2)).
It gave 100% for remaining binding (Receptor-interacting serine/threonine-protein kinase 1 (RIPK1, Homo sapiens, UniProt Q13546)).
It gave 75% for remaining binding (G protein-coupled receptor kinase 4 (GRK4, Homo sapiens, UniProt P32298)).
For Ribosomal protein S6 kinase beta-1 (RPS6KB1, Homo sapiens, UniProt P23443): remaining binding read 100%.
For Phosphatidylinositol 4,5-bisphosphate 3-kinase catalytic subunit beta isoform (PIK3CB, Homo sapiens, UniProt P42338): remaining binding read 100%.
Serine/threonine-protein kinase TBK1 (TBK1, Homo sapiens, UniProt Q9UHD2) — remaining binding: 75%.
STE20/SPS1-related proline-alanine-rich protein kinase (STK39, Homo sapiens, UniProt Q9UEW8) — remaining binding: 100%.
Platelet-derived growth factor receptor alpha (PDGFRA, Homo sapiens, UniProt P16234) — remaining binding: 98%.
It gave 100% for remaining binding (Receptor-type tyrosine-protein kinase FLT3, autoinhibited (FLT3, Homo sapiens, UniProt P36888)).
It gave 100% for remaining binding (Microtubule-associated serine/threonine-protein kinase 1 (MAST1, Homo sapiens, UniProt Q9Y2H9)).
It gave 100% for remaining binding (Serine/threonine-protein kinase/endoribonuclease IRE1 (ERN1, Homo sapiens, UniProt O75460)).
For Cyclin-dependent kinase-like 2 (CDKL2, Homo sapiens, UniProt Q92772): remaining binding read 87%.

For quick reference, copied from above (sample 3):
measured: drug eruption; 30 mg once daily, grade 2 — “adverse event incidence”: 0%.
measured: proteinuria; dose not given, grade 4, all arms pooled — “adverse event incidence”: 0%.
It gave 0% for “adverse event incidence” (measured: ECG ST segment abnormal; dose not given, grade 5, all arms pooled).
measured: QRS axis abnormal; 60 mg once daily, grade 3 — “adverse event incidence”: 0%.
The “adverse event incidence” was 0% (measured: infection; 60 mg once daily, grade 4).
measured: appendicitis; 60 mg once daily, grade 3 — “adverse event incidence”: 0%.
measured: liver injury; dose not given, grade 1, all arms pooled — “adverse event incidence”: 0%.
